Assay results from different studies.
Each numbered part is a random draw from the data of one study; scales do not carry over between parts. Values joined by “and” are separate records of one study, mostly repeats; a detail may differ.
UniProt P36894, sequence (whole entry, looked up): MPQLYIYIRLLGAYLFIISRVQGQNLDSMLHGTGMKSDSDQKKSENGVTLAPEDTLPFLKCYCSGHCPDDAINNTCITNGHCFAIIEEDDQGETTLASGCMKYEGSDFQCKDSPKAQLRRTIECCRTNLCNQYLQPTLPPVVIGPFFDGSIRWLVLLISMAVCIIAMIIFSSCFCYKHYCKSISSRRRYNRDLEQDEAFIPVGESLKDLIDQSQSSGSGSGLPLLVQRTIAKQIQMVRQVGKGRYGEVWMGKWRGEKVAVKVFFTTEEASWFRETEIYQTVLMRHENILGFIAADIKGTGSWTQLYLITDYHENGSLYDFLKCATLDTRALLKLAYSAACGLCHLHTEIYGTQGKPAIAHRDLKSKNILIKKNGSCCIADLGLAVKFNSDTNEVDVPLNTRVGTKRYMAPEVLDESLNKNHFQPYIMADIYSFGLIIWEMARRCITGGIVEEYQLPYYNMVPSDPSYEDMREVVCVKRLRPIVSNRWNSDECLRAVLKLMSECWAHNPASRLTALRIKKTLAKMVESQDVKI
UniProt P06213, sequence (whole entry, looked up): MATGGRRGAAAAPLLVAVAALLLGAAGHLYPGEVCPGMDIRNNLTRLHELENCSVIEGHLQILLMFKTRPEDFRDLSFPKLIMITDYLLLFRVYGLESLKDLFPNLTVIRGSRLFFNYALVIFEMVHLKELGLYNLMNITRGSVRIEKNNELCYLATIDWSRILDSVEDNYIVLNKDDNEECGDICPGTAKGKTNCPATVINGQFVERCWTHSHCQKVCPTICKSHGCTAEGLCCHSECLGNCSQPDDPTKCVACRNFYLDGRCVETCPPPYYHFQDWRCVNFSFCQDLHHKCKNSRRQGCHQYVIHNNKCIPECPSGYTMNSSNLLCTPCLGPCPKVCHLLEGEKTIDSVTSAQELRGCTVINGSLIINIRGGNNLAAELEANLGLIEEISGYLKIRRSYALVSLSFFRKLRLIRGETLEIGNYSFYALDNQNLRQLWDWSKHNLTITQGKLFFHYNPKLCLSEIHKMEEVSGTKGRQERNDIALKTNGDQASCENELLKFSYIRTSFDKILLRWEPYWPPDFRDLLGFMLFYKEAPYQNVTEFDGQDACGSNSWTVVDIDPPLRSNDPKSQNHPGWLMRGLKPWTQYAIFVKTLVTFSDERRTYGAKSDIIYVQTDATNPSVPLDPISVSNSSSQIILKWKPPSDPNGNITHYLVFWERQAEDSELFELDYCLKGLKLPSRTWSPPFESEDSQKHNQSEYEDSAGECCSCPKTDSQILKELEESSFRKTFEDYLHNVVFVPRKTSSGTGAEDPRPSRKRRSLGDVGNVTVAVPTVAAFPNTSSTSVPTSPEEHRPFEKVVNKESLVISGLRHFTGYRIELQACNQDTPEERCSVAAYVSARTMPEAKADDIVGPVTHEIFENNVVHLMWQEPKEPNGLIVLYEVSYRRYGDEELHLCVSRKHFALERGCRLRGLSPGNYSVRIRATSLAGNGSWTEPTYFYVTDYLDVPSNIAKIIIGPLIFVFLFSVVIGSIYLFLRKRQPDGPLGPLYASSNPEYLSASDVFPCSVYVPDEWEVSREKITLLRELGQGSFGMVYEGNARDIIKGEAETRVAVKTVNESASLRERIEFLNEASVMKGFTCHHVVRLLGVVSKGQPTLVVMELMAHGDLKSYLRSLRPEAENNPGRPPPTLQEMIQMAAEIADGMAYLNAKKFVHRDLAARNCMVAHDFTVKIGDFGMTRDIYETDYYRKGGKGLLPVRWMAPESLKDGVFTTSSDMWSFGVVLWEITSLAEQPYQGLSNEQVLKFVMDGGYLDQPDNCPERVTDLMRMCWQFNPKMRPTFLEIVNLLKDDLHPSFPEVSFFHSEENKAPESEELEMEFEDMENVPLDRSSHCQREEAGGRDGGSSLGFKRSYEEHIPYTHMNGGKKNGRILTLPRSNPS
UniProt Q8NEV4, sequence (whole entry, looked up): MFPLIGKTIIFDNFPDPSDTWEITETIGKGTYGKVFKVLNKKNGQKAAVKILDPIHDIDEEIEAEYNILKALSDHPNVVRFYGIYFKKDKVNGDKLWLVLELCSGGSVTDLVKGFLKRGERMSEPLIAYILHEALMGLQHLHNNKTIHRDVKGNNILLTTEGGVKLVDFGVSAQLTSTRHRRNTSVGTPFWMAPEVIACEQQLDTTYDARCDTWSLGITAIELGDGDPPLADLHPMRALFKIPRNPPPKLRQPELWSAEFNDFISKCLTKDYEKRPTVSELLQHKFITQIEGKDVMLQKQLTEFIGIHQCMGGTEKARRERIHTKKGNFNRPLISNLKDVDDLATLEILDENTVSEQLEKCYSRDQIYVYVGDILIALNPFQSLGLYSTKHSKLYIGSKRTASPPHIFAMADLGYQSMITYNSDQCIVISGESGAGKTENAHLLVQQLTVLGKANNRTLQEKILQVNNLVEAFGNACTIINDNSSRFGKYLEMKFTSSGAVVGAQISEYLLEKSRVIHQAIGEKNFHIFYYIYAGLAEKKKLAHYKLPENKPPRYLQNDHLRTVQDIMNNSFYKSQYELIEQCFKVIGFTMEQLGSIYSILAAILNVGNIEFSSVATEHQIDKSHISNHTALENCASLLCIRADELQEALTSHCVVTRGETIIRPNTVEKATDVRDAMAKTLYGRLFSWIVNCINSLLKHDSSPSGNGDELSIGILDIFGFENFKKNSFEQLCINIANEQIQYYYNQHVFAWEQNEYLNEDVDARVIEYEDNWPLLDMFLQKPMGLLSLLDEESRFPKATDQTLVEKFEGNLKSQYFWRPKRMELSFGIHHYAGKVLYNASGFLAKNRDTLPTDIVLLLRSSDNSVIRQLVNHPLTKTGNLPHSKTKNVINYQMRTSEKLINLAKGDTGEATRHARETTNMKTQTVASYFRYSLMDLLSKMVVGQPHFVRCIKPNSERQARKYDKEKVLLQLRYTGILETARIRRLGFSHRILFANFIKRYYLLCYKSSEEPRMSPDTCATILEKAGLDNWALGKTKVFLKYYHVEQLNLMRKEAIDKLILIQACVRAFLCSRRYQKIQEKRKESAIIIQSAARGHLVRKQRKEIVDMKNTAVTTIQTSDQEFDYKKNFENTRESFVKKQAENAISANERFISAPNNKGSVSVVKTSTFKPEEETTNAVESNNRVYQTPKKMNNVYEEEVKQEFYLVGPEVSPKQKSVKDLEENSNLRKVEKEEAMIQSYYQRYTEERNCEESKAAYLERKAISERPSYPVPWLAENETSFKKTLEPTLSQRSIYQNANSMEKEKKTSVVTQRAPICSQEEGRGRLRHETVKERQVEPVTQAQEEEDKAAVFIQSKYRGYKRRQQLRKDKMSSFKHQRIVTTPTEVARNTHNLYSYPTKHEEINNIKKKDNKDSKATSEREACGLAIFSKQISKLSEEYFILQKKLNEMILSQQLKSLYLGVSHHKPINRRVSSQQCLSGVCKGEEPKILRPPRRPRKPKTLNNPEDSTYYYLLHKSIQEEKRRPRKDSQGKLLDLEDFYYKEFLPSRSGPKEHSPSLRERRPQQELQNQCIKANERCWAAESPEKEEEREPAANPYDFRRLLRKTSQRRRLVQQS
UniProt Q04912, sequence (whole entry, looked up): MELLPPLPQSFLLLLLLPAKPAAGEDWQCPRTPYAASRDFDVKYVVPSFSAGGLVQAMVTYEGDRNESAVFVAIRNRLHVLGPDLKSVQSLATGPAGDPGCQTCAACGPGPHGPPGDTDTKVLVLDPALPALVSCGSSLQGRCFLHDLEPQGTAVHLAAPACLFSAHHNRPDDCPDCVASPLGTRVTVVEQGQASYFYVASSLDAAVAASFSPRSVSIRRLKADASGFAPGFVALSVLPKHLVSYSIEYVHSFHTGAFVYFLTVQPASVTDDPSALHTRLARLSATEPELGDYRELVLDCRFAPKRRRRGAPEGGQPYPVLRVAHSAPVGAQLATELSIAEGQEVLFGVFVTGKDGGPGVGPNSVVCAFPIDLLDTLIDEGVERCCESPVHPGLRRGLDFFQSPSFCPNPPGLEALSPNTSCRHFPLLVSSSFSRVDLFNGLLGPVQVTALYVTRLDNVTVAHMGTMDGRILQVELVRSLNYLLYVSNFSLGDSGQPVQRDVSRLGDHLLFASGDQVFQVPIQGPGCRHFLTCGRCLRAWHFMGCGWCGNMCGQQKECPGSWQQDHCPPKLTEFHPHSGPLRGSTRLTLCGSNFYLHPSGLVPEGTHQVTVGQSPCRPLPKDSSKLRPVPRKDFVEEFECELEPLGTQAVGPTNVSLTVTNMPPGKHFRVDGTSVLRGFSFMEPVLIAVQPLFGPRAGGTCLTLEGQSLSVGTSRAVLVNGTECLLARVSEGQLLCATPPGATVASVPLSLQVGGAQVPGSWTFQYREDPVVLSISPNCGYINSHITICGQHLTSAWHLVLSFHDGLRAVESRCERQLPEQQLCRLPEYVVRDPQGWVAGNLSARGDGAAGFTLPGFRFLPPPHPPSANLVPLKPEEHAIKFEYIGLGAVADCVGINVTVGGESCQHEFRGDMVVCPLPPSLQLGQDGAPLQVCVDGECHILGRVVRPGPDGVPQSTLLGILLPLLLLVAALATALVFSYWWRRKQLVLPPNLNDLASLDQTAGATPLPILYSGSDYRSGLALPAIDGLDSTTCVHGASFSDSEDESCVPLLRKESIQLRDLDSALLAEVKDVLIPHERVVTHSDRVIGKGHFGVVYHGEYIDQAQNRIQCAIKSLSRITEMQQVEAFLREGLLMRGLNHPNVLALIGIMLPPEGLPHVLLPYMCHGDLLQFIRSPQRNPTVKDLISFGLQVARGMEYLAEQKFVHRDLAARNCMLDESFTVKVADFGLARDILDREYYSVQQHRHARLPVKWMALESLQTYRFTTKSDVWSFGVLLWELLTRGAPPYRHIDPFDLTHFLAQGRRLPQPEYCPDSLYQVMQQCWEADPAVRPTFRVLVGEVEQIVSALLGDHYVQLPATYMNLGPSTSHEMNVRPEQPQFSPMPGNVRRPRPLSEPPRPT

Series 1 — host: human; medium: microsomes or S9; tested at: 2 µM; time: 0.5 h; endpoint: remaining compound
COc1cnc(C(=O)N2CCCC23CCOC3)nc1 (stereo not shown): > 100%
Cc1cc(C)c(-c2csc(Nc3ncnc4[nH]ncc34)n2)cc1C: > 100%
CC1(C)CNC(=O)c2nc(Cc3ccc(O)cc3)[nH]c2C1: 97.6%

Series 2 — cell line: HaCaT; tested at: 100 µM; time: 36 h; endpoint: viability
CC1(C)S[C@@H]2[C@H](NC(=O)C(C(=O)O)c3ccccc3)C(=O)N2[C@H]1C(=O)O (stereo partly shown): 94.8%
O=C1CCC(N2C(=O)c3ccccc3C2=O)C(=O)N1 (stereo not shown): 95.3%
Clc1ccc(CCC(Cn2ccnc2)Sc2c(Cl)cccc2Cl)cc1 (stereo not shown): 6.05%

Series 3 — method: competition with immobilised ligand; tested at: 1 µM; endpoint: remaining binding
Compound: COc1ccc2c(c1)O[C@H](c1ccc(OC)c(OC)c1)C[C@@H]2NC(=O)C1(c2ccc3c(c2)OC(F)(F)O3)CC1
Serine/threonine-protein kinase PAK 6 (PAK6, Homo sapiens, UniProt Q9NQU5); cell-free assay: 100%
Insulin receptor (INSR, Homo sapiens, UniProt P06213); cell-free assay: 82%
Myosin-IIIa (MYO3A, Homo sapiens, UniProt Q8NEV4); binding: 100%
Cyclin-dependent kinase 11B (CDK11B, Homo sapiens, UniProt P21127); cell-free assay: 100%
Activated CDC42 kinase 1 (TNK2, Homo sapiens, UniProt Q07912); cell-free assay: 99%
Serine/threonine-protein kinase BRSK2 (BRSK2, Homo sapiens, UniProt Q8IWQ3); cell-free assay: 88%
Bone morphogenetic protein receptor type-1A (BMPR1A, Homo sapiens, UniProt P36894); binding: 98%
Testis-specific serine/threonine-protein kinase 3 (TSSK3, Homo sapiens, UniProt Q96PN8); cell-free assay: 100%
Casein kinase I isoform gamma-3 (CSNK1G3, Homo sapiens, UniProt Q9Y6M4); cell-free assay: 100%
Serine/threonine-protein kinase D2 (PRKD2, Homo sapiens, UniProt Q9BZL6); cell-free assay: 100%
Phosphatidylinositol 4-phosphate 3-kinase C2 domain-containing subunit beta (PIK3C2B, Homo sapiens, UniProt O00750); cell-free assay: 96%
Mast/stem cell growth factor receptor Kit (KIT, Homo sapiens, UniProt P10721, D816H); cell-free assay: 100%
Phosphatidylinositol 4,5-bisphosphate 3-kinase catalytic subunit delta isoform (PIK3CD, Homo sapiens, UniProt O00329); cell-free assay: 85%
Phosphatidylinositol 3-kinase catalytic subunit type 3 (PIK3C3, Homo sapiens, UniProt Q8NEB9); cell-free assay: 88%
Macrophage-stimulating protein receptor (MST1R, Homo sapiens, UniProt Q04912); cell-free assay: 100%
Tyrosine-protein kinase JAK1, JH2 (JAK1, Homo sapiens, UniProt P23458); cell-free assay: 100%

Series 4 — host: mouse, EL4 tumour-bearing; medium: EL4 tumour; dose: dose not given; baseline: vehicle; endpoint: log2 fold change
SMILES: CC(=O)N[C@@H](Cc1c[nH]c2ccccc12)C(=O)N[C@@H](CCC(=O)C=[N+]=[N-])C(=O)OC(C)C
measured: tryptophan: 0.316
measured: fructose 6-phosphate: 0.662
measured: gamma-glutamyl-alpha-lysine: -0.303

Series 5 — organism: Sarcocystis neurona; effect on: parasite growth; tested at: 10 µM; notes: secondary screen; endpoint: inhibition
OC(c1cc(C(F)(F)F)nc2c(C(F)(F)F)cccc12)C1CCCCN1 (stereo not shown): 0.9%
O=C1CCc2ccc(OCCCCN3CCN(c4cccc(Cl)c4Cl)CC3)cc2N1: -2.8%
CN1CCc2cc(Cl)c(O)cc2[C@@H](c2ccccc2)C1.Cl: -56.1%
CN(C)[C@@H]1C(O)=C(C(N)=O)C(=O)[C@@]2(O)C(O)=C3C(=O)c4c(O)cccc4[C@@](C)(O)[C@H]3[C@H](O)[C@@H]12: 5.6%

Series 6 — method: PRP chromatography; notes: linear fit, 1 mL; endpoint: logD 1,9-decadiene/water
CC(C)C[C@@H]1NC(=O)[C@H](Cc2cscn2)NC(=O)[C@H](CC(C)C)NC(=O)[C@H](C(C)C)NC(=O)[C@H](CC(C)C)NC(=O)[C@@H](CC(C)C)NC(=O)[C@H](CC(C)C)NC1=O: 0.231 log units
CC(C)C[C@@H]1NC(=O)[C@H](Cc2cscn2)NC(=O)[C@H](CCC(=O)N2CCCC2)NC(=O)[C@H](C)NC(=O)[C@@H](Cc2cscn2)NC(=O)[C@H](CC(C)C)NC(=O)[C@@H](CC(C)C)NC1=O: -4.39 log units
CC(C)C[C@@H]1NC(=O)[C@H](CCC(=O)N2CCCC2)NC(=O)[C@@H](C(C)C)NC(=O)[C@H](C(C)C)NC(=O)[C@H](CC(C)C)NC(=O)[C@@H](CC(C)C)NC(=O)[C@H](CC(C)C)NC1=O: 0.189 log units
CC(C)C[C@@H]1NC(=O)[C@H](CCC(=O)N2CCCC2)NC(=O)[C@H](CCC(=O)N2CCCC2)NC(=O)[C@@H](CCC(=O)N2CCCC2)NC(=O)[C@H](CC(C)C)NC(=O)[C@@H](CC(C)C)NC(=O)[C@H](CC(C)C)NC1=O: -1.56 log units

Mixed results
Ic1ccc(Nc2nc(NCCN3CCOCC3)nc(N3CCOCC3)n2)cc1  reporter signal (HEK293T ATF4-firefly luciferase reporter; integrated stress response, measured: ATF4; 1 µM, without ISRIB; baseline: DMSO): 120% and 108% and 101% and 105%

Excerpt of the above (series 2):
CC1(C)S[C@@H]2[C@H](NC(=O)C(C(=O)O)c3ccccc3)C(=O)N2[C@H]1C(=O)O (stereo partly shown): 94.8%
O=C1CCC(N2C(=O)c3ccccc3C2=O)C(=O)N1 (stereo not shown): 95.3%
Clc1ccc(CCC(Cn2ccnc2)Sc2c(Cl)cccc2Cl)cc1 (stereo not shown): 6.05%
